Assay results from different studies.
Each line is one published result; not all experiments were run side by side.
Target: Aryl hydrocarbon receptor (AHR, Homo sapiens, UniProt P35869)
One construct used (P35869 11-848): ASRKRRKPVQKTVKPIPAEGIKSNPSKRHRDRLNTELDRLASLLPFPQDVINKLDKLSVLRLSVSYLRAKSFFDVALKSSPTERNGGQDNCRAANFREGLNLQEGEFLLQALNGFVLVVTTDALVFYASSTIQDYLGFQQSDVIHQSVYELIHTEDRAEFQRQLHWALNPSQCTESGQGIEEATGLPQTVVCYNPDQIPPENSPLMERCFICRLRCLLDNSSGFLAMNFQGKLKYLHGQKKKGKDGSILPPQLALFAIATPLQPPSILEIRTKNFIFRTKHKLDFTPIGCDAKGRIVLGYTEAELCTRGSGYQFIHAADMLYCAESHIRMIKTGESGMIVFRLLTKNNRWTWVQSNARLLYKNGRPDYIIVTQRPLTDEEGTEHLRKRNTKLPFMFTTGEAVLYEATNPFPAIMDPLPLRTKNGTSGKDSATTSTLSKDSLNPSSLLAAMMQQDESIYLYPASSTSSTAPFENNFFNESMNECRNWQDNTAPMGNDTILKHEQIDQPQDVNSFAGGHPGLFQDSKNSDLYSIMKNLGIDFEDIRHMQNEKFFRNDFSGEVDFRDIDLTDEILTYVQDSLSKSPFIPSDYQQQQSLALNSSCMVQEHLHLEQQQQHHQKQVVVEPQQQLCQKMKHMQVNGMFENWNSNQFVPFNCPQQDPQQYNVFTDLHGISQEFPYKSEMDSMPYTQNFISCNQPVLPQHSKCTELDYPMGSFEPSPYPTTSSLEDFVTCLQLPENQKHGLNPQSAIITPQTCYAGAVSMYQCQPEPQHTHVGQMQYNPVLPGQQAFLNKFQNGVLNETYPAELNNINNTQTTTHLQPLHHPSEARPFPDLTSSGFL

With Oc1cc(Cl)cc(-c2cccc(Cl)c2)c1 the IC50 was 18 µM (reporter gene, antagonist; AZ-AHR cells; 24 h, with: TCDD 4.5 nM).
With COC(=O)N(C(=O)N1COC2(C(=O)OC)Cc3cc(Cl)ccc3C2=N1)c1ccc(OC(F)(F)F)cc1 (racemic) the EC50 was > 100 µM (agonist).
The EC50 of COc1cc(C(=O)N2CC[C@@H](O)[C@@H](N)C2)cc2nc(-c3cc4ccccc4n3CC3CC3)n(C)c12 is reported as 79.4 µM (agonist, FRET).
For O=C(Nc1ccccc1-c1ccc(Cl)cc1)c1cccnc1Cl, the EC50 was > 100 µM (agonist).
For Clc1cccc(-c2cccc(Cl)c2)c1, the IC50 was 37 µM (reporter gene, antagonist; AZ-AHR cells; 24 h, with: TCDD 4.5 nM).
The EC50 of Cc1ccc2c(ccc3ccccc32)c1 is reported as 24.4 µM (reporter gene, agonist, yeast LacZ reporter; Saccharomyces cerevisiae; 18 h).
The EC50 of COP(=S)(OC)Oc1nc(Cl)c(Cl)cc1Cl is reported as 5.1 µM (agonist).
Clc1ccc(-c2cc(Cl)ccc2Cl)cc1 gave an IC50 of 39 µM (reporter gene, antagonist; AZ-AHR cells; 24 h, with: TCDD 4.5 nM).
With Cc1cc2ccccc2c2ccccc12 the EC50 was 7.83 µM (reporter gene, agonist, yeast LacZ reporter; Saccharomyces cerevisiae; 18 h, 30 °C; reference: 50% of 100 µM phenanthrene activity).

A few entries again:
Clc1ccc(-c2cc(Cl)ccc2Cl)cc1 gave an IC50 of 39 µM (reporter gene, antagonist; AZ-AHR cells; 24 h, with: TCDD 4.5 nM).
